Published values collected from several papers.
Every numbered part comes from another study and shows a few of its results, in no order. Positions count from the first letter of the parent shown.

Series 1
Target: ABI1, truncated, D143A, DHFR fusion (Arabidopsis thaliana, UniProt P49597)
Method: DHFR PCA, dose-response
Matrix: yeast
Notes: Hill fit, mean, not affinity
Together with: (+)-ABA, dose series
Reading: lower = more sensitive
Measurement: ABA EC50
Parent: PYL1, truncated, DHFR fusion (Arabidopsis thaliana, UniProt Q8VZS8); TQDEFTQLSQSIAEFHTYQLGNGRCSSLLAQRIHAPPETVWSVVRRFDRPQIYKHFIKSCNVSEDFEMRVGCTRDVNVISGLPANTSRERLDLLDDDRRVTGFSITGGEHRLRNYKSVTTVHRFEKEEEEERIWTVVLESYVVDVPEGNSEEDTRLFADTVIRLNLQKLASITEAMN
G21F: 8.18 µM
G107T: 96.8 µM
K126L: 1.69 µM
E127I: 2.82 µM
E38V: 66.9 µM
D96S: 110 µM
R155N: 13.6 µM
G102T: 287 µM
R113N: 2.03 µM

Series 2
Target: CCNB1, cyclin fold, Cln2 fusion (human)
Method: yeast growth competition, sequencing
Matrix: yeast
Notes: weak parent motif
Baseline: not given
Reading: higher = stronger binding
Measurement: normalised enrichment score
Parent: CDKN1A docking peptide (human); SKACRRLFGPVDS
R5D: -0.611
R6F: 0.575
V11Y: 0.359
P10S: 0.2
K2Y: 0.701
K2I: 0.246
C4M: 0.0271

Series 3
Target: Sal-like protein 4, full length isoform B (SALL4, Homo sapiens, UniProt Q9UJQ4-2, residues 1-616)
Method: universal PBM
Form: double-stranded DNA, one strand shown
Matrix: in vitro
Tested at: not given
Notes: 8-mer, flanks averaged, mean of replicates
Reading: higher = stronger binding
Measurement: E-score
AGATCACA: 0.0248
AAAACATT: 0.321
ACTTAGTA: 0.189
AAAATAGT: 0.253
TGTGCGAA: -0.0464
ATGTCGGA: -0.0791
AAGTGATA: 0.145
AGCGTGAT: -0.0818
AAACAACA: 0.111
TCAATTAA: 0.182
TCCCACGA: -0.18
ATTCGGAC: 0.0795

Single results of other studies
PhoQ, residues 284 288 289 292 302 303 AEGLLW
fold induction (PhoP, residues 12 14 15 18 19 HEGLL (Escherichia coli, UniProt P23836); Sort-seq, item: YFP reporter; E. coli; PhoQ-PhoP variant library, together with: 10 µM Mg2+; baseline: high Mg2+ state, higher = stronger signaling): 0.771

For quick reference, copied from above (series 2):
V11Y: 0.359
R5D: -0.611
